# Values quoted from earlier work that unrelated publications cite.
# Each line is one published result; not all experiments were run side by side. ± gives the spread as reported.
Compound,tested on,assay,test system,conditions,endpoint,result
C[C@@H]1CCO[C@H]2Cn3cc(C(=O)NCc4ccc(F)cc4F)c(=O)c(O)c3C(=O)N12,HIV-1,viral replication,integrase R263K mutant,,EC50,0.011 ± 0.003 µM
CC(=O)Nc1ccc(C)c(C(=O)N[C@H](C)c2cccc3ccccc23)c1,SARS-CoV PLpro,enzyme activity,,,IC50,2.6 ± 0.1 µM
CN(C)CCOc1ccc(/C(=C(/CCCl)c2ccccc2)c2ccccc2)cc1,SARS-CoV,cytopathic effect,Vero E6,,EC50,12 µM
C[C@H](NC(=O)[C@@H](c1cccnc1)N(C(=O)c1ccco1)c1ccc(-c2ccccc2)cc1)c1ccccc1,human cathepsin L,"enzyme activity, inhibitor",,,IC50,11 µM
CCN(CC)Cc1cc(Nc2ccnc3cc(Cl)ccc23)ccc1O,Ebola virus,viral replication,"Vero E6, eGFP reporter",,EC50,34 µM
C[C@H]1CO[C@@H]2Cn3cc(C(=O)NCc4ccc(F)cc4F)c(=O)c(O)c3C(=O)N12,HIV-1 integrase S230N,viral replication,HIV-1,single-round vector,EC50,0.0032 ± 0.0005 µM
C[C@H](NCc1ccc(OCc2cccc(F)c2)cc1)C(N)=O,TTX-sensitive sodium channel,sodium current,hippocampal neurons,holding potential -60 mV,IC50,33 µM
O=C(c1cc(=O)[nH]c2ccccc12)N1CCN(c2ccc(Cl)c(Cl)c2)CC1CN1CCOCC1 (stereo not drawn),human protease panel,"enzyme activity, inhibitor",,off-target,IC50,> 100 µM
CN(C)CCCN1c2ccccc2Sc2ccc(Cl)cc21,SARS-CoV,cytopathic effect,Vero E6,,EC50,13 µM
C[C@@H]1CCO[C@H]2Cn3cc(C(=O)NCc4ccc(F)cc4F)c(=O)c(O)c3C(=O)N12,HIV-1,"viral replication, single-round vector infection",IN G140S/Q148H,,EC50,0.0064 ± 0.0016 µM
CC(C)(C#Cc1ccc(-c2ccc(Cl)c3c(NS(C)(=O)=O)nn(CC(F)(F)F)c23)c([C@H](Cc2cc(F)cc(F)c2)NC(=O)Cn2nc(C(F)(F)F)c3c2C(F)(F)[C@@H]2C[C@H]32)n1)S(C)(=O)=O,HIV-1,viral replication,,,EC50,> 10 µM
CCN(CC)CCCC(C)Nc1ccnc2cc(Cl)ccc12 (stereo not drawn),SARS-CoV,cytopathic effect,Vero E6,,EC50,6.54 µM
CC(C)(C)[C@H](NC(=O)C(F)(F)F)C(=O)N1C[C@H]2[C@@H]([C@H]1C(=O)N[C@H](C#N)C[C@@H]1CCNC1=O)C2(C)C,Calu-3,cytotoxicity,,,CC50,> 100 µM
O=C(NCc1c(F)cc(F)cc1F)c1cn2c(c(O)c1=O)C(=O)N1[C@H]3CC[C@H](C3)O[C@@H]1C2,HIV-1,"viral replication, single-round vector infection",IN N155H,,EC50,0.0027 ± 0.0008 µM
N#Cc1ccc(Nc2ncc(Cc3c(F)cccc3F)o2)cc1Cl,HIV-1,viral replication,Y181C mutant,,EC50,0.42 µM

# Some of these lines once more:
Compound,tested on,assay,test system,conditions,endpoint,result
CCN(CC)CCCC(C)Nc1ccnc2cc(Cl)ccc12 (stereo not drawn),SARS-CoV,cytopathic effect,Vero E6,,EC50,6.54 µM
C[C@H]1CO[C@@H]2Cn3cc(C(=O)NCc4ccc(F)cc4F)c(=O)c(O)c3C(=O)N12,HIV-1 integrase S230N,viral replication,HIV-1,single-round vector,EC50,0.0032 ± 0.0005 µM
